Measurements gathered from unrelated publications.
Each numbered part is a random draw from the data of one study; scales do not carry over between parts. Several values in a cell are separate wells, animals, samples, runs or records.
UniProt Q06187, sequence (whole entry, looked up): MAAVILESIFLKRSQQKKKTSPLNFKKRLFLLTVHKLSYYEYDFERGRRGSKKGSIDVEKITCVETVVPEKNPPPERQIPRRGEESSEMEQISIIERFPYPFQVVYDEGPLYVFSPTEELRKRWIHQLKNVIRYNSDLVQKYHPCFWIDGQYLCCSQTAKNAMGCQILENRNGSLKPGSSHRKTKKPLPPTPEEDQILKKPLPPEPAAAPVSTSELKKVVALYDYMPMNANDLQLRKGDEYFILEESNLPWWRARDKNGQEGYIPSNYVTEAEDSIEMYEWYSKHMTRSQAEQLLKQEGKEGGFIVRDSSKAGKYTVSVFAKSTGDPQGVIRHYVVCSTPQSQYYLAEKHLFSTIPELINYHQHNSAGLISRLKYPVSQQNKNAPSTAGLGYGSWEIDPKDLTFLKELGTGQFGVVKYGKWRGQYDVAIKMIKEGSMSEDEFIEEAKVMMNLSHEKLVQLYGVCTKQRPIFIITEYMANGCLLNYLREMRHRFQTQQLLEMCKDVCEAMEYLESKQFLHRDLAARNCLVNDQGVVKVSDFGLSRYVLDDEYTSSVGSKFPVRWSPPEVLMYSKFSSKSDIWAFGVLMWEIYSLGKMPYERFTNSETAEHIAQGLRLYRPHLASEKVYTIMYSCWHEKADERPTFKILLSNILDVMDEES
UniProt P10721, sequence (whole entry, looked up): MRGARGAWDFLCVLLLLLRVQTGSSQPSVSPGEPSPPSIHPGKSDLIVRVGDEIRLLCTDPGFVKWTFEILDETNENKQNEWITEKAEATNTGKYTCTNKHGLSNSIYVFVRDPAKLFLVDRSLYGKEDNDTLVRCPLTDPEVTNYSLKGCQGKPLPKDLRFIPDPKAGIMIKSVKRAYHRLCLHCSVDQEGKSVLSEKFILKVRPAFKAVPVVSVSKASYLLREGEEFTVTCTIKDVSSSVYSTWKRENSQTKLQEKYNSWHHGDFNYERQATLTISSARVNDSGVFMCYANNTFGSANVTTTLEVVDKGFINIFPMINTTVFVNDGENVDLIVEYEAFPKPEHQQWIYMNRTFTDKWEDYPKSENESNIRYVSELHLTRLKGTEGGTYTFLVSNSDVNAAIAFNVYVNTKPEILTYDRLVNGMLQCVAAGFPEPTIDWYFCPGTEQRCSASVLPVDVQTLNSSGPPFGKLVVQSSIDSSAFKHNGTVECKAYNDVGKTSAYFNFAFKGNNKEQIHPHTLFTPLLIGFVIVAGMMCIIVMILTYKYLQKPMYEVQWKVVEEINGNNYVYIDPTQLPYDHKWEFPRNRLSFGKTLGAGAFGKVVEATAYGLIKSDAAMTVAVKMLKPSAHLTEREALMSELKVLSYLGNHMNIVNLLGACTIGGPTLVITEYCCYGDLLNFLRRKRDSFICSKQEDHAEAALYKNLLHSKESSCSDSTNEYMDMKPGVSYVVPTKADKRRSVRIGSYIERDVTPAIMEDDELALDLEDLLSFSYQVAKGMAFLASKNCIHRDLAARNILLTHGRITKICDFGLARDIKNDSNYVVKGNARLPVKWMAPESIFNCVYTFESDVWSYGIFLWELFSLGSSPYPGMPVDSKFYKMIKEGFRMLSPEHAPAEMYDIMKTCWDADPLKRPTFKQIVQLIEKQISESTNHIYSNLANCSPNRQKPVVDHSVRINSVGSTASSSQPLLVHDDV
UniProt Q9BWU1, sequence (whole entry, looked up): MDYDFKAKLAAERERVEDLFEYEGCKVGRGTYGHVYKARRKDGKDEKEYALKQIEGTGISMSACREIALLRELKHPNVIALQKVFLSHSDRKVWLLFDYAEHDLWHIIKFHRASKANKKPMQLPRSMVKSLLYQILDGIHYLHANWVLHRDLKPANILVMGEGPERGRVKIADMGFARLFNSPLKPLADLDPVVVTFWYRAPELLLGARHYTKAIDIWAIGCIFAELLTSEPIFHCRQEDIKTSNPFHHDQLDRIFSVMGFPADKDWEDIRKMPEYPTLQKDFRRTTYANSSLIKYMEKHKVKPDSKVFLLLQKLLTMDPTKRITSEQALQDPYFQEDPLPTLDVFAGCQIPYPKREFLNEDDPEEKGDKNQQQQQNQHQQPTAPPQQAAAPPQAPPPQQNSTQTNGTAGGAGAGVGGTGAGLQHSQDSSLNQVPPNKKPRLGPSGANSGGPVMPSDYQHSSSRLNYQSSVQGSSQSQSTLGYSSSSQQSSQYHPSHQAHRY
UniProt Q13976, sequence (whole entry, looked up): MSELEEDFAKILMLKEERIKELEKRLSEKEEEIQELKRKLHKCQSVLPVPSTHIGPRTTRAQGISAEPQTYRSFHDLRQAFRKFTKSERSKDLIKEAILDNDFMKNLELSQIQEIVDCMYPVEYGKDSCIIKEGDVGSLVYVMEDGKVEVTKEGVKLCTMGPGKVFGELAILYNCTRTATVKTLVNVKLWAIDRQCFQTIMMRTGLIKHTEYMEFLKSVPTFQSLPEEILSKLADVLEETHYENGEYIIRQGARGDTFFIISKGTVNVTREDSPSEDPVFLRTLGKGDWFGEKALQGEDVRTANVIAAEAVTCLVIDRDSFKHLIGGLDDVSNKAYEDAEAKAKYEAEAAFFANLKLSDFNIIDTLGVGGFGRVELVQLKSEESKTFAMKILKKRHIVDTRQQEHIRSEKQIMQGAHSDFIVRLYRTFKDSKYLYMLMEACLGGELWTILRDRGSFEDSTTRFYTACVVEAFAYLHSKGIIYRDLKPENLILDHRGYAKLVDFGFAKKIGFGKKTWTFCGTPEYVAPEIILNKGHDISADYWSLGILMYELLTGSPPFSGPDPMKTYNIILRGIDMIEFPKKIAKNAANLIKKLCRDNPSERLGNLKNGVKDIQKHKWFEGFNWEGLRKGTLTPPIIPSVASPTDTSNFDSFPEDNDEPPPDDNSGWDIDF
UniProt Q02779, sequence (whole entry, looked up): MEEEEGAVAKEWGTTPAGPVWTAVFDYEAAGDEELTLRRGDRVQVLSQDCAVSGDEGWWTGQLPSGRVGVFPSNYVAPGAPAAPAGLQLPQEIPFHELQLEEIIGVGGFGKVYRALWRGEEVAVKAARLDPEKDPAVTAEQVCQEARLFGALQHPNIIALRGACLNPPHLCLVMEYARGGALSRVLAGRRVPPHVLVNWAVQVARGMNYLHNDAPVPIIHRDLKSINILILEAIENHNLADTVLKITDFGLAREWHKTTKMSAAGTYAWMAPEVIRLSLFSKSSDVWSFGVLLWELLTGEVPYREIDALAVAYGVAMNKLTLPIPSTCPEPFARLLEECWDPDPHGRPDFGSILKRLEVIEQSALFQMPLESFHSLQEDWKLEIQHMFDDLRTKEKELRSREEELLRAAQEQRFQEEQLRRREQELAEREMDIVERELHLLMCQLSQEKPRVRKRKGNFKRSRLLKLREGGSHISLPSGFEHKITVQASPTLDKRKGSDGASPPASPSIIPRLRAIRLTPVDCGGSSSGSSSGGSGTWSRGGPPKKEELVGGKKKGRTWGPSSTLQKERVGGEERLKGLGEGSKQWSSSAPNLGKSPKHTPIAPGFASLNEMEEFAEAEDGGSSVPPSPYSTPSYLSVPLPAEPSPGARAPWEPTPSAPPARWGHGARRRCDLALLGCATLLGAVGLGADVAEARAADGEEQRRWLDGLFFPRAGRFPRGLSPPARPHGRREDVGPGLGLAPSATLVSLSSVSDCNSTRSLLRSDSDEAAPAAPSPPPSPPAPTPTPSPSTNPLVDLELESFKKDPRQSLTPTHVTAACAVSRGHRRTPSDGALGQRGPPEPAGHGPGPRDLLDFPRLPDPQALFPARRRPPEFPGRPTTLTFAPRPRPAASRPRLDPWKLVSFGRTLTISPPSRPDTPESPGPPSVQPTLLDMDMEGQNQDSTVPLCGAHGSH
UniProt O15264, sequence (whole entry, looked up): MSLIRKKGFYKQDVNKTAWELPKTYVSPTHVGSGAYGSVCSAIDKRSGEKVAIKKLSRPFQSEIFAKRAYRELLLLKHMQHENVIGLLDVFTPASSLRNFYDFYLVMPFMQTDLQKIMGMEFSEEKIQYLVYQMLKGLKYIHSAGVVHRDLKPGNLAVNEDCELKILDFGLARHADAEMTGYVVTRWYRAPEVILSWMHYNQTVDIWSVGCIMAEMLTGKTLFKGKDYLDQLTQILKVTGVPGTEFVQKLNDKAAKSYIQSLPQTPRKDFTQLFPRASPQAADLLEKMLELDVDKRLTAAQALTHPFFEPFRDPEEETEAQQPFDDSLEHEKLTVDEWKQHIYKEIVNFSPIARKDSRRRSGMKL
UniProt Q9Y243, sequence (whole entry, looked up): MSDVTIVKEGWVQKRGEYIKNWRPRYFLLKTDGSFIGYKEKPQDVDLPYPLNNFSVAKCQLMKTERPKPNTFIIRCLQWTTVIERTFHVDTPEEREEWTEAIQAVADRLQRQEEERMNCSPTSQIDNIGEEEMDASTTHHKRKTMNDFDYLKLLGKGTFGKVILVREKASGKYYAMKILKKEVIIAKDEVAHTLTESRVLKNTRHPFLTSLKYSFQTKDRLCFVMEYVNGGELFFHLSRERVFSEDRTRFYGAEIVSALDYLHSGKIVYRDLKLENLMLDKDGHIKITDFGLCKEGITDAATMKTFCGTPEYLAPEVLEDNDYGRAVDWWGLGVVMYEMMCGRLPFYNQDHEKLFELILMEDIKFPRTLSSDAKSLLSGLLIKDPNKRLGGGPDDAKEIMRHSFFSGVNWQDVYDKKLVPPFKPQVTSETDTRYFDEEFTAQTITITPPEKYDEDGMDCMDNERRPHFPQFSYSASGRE
UniProt P52564, sequence (whole entry, looked up): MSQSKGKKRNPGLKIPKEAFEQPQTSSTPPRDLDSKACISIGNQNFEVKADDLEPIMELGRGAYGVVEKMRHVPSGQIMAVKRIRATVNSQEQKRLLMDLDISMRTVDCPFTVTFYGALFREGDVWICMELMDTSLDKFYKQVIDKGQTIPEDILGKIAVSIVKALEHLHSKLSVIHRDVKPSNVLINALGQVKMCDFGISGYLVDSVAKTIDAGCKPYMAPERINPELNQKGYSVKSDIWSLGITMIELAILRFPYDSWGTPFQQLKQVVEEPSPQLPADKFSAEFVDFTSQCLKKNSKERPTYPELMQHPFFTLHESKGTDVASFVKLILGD

Study 1
Compound: CNCc1ccccc1-c1csc([C@@H](C)Nc2nc(C)nc3cc(OC)c(OC)cc23)c1
Concentration: 1 µM
target | test | remaining binding [%]
Membrane-associated tyrosine- and threonine-specific cdc2-inhibitory kinase (PKMYT1, Homo sapiens, UniProt Q99640) | cell-free assay, competition with immobilised ligand | 93
Serine/threonine-protein kinase SIK1 (SIK1, Homo sapiens, UniProt P57059) | competition binding | 91
Fibroblast growth factor receptor 3 (FGFR3, Homo sapiens, UniProt P22607, G697C) | cell-free assay, competition with immobilised ligand | 85
Serine/threonine-protein kinase BRSK1 (BRSK1, Homo sapiens, UniProt Q8TDC3) | cell-free assay, competition with immobilised ligand | 87
Tyrosine-protein kinase BTK (BTK, Homo sapiens, UniProt Q06187) | cell-free assay, competition with immobilised ligand | 90
Serine/threonine-protein kinase MRCK gamma (CDC42BPG, Homo sapiens, UniProt Q6DT37) | competition binding | 98
ALK tyrosine kinase receptor (ALK, Homo sapiens, UniProt Q9UM73) | cell-free assay, competition with immobilised ligand | 79
Serine/threonine-protein kinase SBK1 (SBK1, Homo sapiens, UniProt Q52WX2) | cell-free assay, competition with immobilised ligand | 100
Phosphorylase b kinase gamma catalytic chain, liver/testis isoform (PHKG2, Homo sapiens, UniProt P15735) | cell-free assay, competition with immobilised ligand | 100
Tyrosine-protein kinase SYK (SYK, Homo sapiens, UniProt P43405) | cell-free assay, competition with immobilised ligand | 100
Receptor-type tyrosine-protein kinase FLT3 (FLT3, Homo sapiens, UniProt P36888, R834Q) | cell-free assay, competition with immobilised ligand | 79
Activin receptor type-2A (ACVR2A, Homo sapiens, UniProt P27037) | cell-free assay, competition with immobilised ligand | 94
Aurora kinase A (AURKA, Homo sapiens, UniProt O14965) | cell-free assay, competition with immobilised ligand | 73
G protein-coupled receptor kinase 3 (GRK3, Homo sapiens, UniProt P35626) | cell-free assay, competition with immobilised ligand | 98
Cyclin-dependent kinase 19 (CDK19, Homo sapiens, UniProt Q9BWU1) | competition binding | 85
Serine/threonine-protein kinase 17B (STK17B, Homo sapiens, UniProt O94768) | cell-free assay, competition with immobilised ligand | 92

Study 2
Organism: Plasmodium berghei
Action: inhibitor
Cells: Huh-7
Strain: liver stage
Concentration: 10 µM
Time: 24 h
Reference: untreated control
Structure (SMILES) | infection rate
O=C(c1ccccc1)c1ccc2n1CCC2C(=O)O (stereo not shown) | 113%
O=C1[C@H](CC[C@H](O)c2ccc(F)cc2)[C@@H](c2ccc(O)cc2)N1c1ccc(F)cc1 | 108%
N[C@@H](Cc1ccc(O)c(O)c1)C(=O)O | 90.6%
O=C1OC2(c3ccc(O)cc3Oc3cc(O)ccc32)c2ccccc21 | 102%
Cc1cccc(C)c1OCC(C)N (stereo not shown) | 106%
CCCCC(=O)O[C@]1(C(=O)CO)CC[C@H]2[C@@H]3CCC4=CC(=O)CC[C@]4(C)[C@H]3[C@@H](O)C[C@@]21C | 72.3%
COc1ccc(Cl)cc1C(=O)NCCc1ccc(S(=O)(=O)NC(=O)NC2CCCCC2)cc1 | 92.6%
NC(=O)c1cccnc1 | 102%

Study 3
Cell line: mouse MPNST tumor cells
Technique: high-content nuclear imaging
Measured: cell number
Concentration: 10 µM
Time: 12 h
Setting: mean of 2 replicates
Reference: plate mean
Direction: higher = more cells
SMILES | nuclei count
CC1=C(C(=O)OCCN(Cc2ccccc2)c2ccccc2)C(c2cccc([N+](=O)[O-])c2)C(P2(=O)OCC(C)(C)CO2)=C(C)N1 (stereo not shown) | 2.73 z-score
OC(CCN1CCCCC1)(c1ccccc1)C1CC2C=CC1C2 (stereo not shown) | 1.21 z-score
COc1ccc(C[C@@H]2c3cc(OC)c(OC)cc3CC[N@+]2(C)CCC(=O)OCCCCCOC(=O)CC[N@@+]2(C)CCc3cc(OC)c(OC)cc3[C@H]2Cc2ccc(OC)c(OC)c2)cc1OC | -1.39 z-score and -1.01 z-score
CC(=O)N(CC(O)CO)c1c(I)c(C(=O)NCC(O)CO)c(I)c(C(=O)NCC(O)CO)c1I (stereo not shown) | 0.915 z-score
CN=c1nc(-c2ccccc2)n(-c2ccccc2)s1 | -0.333 z-score

Study 4
Structure (SMILES): FC(F)(F)c1ccc(/C=C/c2nc(COc3ccc(CCCCn4ccnn4)cc3)co2)cc1
Read-out: enzyme activity
Action: inhibitor
Concentration: 0.5 µM
Reference: control
target | remaining activity
Serine/threonine-protein kinase PLK2 (PLK2, Homo sapiens, UniProt Q9NYY3) | 99.7%
Cyclin-dependent kinase 9, with cyclin T1 (CDK9, Homo sapiens, UniProt P50750) | 99.5%
Leucine-rich repeat serine/threonine-protein kinase 2 (LRRK2, Homo sapiens, UniProt Q5S007) | 94.8%
MAP kinase-interacting serine/threonine-protein kinase 2 (MKNK2, Homo sapiens, UniProt Q9HBH9) | 101%
Mitogen-activated protein kinase 12 (MAPK12, Homo sapiens, UniProt P53778) | 98.3%
RAC-gamma serine/threonine-protein kinase (AKT3, Homo sapiens, UniProt Q9Y243) | 96.3%
Ephrin type-A receptor 5 (EPHA5, Homo sapiens, UniProt P54756) | 99.9%
Serine/threonine-protein kinase WNK2 (WNK2, Homo sapiens, UniProt Q9Y3S1) | 95.9%
Serine/threonine-protein kinase Chk1 (CHEK1, Homo sapiens, UniProt O14757) | 108%
Mast/stem cell growth factor receptor Kit (KIT, Homo sapiens, UniProt P10721) | 98.8%
Mitogen-activated protein kinase kinase kinase kinase 2 (MAP4K2, Homo sapiens, UniProt Q12851) | 105%
Interleukin-1 receptor-associated kinase 4 (IRAK4, Homo sapiens, UniProt Q9NWZ3) | 97.7%
Tyrosine-protein kinase BTK (BTK, Homo sapiens, UniProt Q06187) | 98.2%
Serine/threonine-protein kinase 38 (STK38, Homo sapiens, UniProt Q15208) | 102%
Mitogen-activated protein kinase kinase kinase 10 (MAP3K10, Homo sapiens, UniProt Q02779) | 98.9%
cGMP-dependent protein kinase 1 (PRKG1, Homo sapiens, UniProt Q13976) | 75.9%
Casein kinase II subunit alpha (CSNK2A1, Homo sapiens, UniProt P68400) | 97.5%
Protein kinase C iota type (PRKCI, Homo sapiens, UniProt P41743) | 92.6%
Dual specificity mitogen-activated protein kinase kinase 6 (MAP2K6, Homo sapiens, UniProt P52564) | 100%
Casein kinase I isoform alpha (CSNK1A1, Homo sapiens, UniProt P48729) | 98.4%
Serine/threonine-protein kinase Nek4 (NEK4, Homo sapiens, UniProt P51957) | 90%
Tyrosine-protein kinase Lyn (LYN, Homo sapiens, UniProt P07948) | 95.8%
Mitogen-activated protein kinase 13 (MAPK13, Homo sapiens, UniProt O15264) | 99.1%

Repeated from above (study 2):
Structure (SMILES) | infection rate
COc1ccc(Cl)cc1C(=O)NCCc1ccc(S(=O)(=O)NC(=O)NC2CCCCC2)cc1 | 92.6%
O=C(c1ccccc1)c1ccc2n1CCC2C(=O)O (stereo not shown) | 113%
N[C@@H](Cc1ccc(O)c(O)c1)C(=O)O | 90.6%
NC(=O)c1cccnc1 | 102%
